Experimental data pooled from the literature.
Each numbered part is a random draw from the data of one study; scales do not carry over between parts.
UniProt P14616, sequence (whole entry, looked up): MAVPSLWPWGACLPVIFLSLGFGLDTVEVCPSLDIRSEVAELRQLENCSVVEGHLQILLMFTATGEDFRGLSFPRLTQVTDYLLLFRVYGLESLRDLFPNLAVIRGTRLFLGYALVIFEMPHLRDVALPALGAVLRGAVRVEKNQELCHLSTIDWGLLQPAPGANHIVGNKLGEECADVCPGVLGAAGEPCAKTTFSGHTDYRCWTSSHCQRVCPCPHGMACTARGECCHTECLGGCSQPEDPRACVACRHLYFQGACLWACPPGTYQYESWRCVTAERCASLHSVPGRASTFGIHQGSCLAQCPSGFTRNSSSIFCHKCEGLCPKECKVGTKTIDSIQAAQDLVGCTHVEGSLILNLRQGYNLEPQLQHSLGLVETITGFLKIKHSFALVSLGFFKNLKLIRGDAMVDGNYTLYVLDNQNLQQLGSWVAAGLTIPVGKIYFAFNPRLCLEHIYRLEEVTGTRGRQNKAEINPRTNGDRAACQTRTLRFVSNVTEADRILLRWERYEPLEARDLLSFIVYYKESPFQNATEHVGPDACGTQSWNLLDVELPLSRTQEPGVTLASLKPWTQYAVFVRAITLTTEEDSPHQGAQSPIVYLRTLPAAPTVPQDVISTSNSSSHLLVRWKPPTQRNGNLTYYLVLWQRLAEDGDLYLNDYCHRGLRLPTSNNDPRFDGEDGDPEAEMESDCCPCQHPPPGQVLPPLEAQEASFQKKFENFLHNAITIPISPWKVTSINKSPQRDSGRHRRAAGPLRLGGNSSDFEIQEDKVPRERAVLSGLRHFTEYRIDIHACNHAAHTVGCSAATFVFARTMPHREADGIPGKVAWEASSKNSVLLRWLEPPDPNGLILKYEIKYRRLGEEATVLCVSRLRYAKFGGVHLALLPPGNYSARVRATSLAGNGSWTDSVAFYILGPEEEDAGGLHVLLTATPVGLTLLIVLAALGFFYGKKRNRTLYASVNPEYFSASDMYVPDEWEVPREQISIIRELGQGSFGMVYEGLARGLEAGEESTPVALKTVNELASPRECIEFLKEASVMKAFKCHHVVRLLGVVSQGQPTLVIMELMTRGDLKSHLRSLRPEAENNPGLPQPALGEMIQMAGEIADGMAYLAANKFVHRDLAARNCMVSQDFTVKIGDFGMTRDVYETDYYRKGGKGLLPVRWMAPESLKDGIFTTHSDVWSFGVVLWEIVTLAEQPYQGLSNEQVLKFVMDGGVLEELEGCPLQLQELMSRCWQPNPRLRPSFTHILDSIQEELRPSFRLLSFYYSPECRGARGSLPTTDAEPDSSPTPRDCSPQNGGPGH
UniProt P07949, sequence (whole entry, looked up): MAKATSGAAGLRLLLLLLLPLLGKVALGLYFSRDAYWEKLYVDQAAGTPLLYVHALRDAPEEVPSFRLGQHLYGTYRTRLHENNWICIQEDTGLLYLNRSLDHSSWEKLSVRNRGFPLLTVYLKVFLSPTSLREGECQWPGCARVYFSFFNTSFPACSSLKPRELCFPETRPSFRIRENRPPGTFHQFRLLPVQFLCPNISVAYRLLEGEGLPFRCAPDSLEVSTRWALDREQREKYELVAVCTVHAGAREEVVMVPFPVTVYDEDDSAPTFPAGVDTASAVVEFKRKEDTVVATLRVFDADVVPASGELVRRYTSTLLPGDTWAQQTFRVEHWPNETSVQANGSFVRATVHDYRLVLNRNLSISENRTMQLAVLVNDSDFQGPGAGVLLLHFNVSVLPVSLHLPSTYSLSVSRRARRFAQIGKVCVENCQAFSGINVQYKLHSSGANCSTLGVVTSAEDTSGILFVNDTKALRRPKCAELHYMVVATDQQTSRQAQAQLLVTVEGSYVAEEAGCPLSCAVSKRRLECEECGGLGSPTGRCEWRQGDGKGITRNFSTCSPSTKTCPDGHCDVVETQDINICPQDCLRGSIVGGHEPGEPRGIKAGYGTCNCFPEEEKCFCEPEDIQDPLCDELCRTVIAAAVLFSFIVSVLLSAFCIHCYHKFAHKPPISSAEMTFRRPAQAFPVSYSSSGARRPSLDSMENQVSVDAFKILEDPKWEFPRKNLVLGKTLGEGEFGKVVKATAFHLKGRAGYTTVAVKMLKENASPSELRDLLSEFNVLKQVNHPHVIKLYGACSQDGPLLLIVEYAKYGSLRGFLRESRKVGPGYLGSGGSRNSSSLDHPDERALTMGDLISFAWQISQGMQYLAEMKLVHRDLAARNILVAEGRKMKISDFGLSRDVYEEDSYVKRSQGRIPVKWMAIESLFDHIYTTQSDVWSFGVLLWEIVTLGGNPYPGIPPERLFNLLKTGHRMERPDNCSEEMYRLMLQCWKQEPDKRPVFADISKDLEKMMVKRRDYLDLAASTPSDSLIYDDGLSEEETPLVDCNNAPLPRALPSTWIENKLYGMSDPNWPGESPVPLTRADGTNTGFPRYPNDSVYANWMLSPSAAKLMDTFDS
UniProt P62344, sequence (whole entry, looked up): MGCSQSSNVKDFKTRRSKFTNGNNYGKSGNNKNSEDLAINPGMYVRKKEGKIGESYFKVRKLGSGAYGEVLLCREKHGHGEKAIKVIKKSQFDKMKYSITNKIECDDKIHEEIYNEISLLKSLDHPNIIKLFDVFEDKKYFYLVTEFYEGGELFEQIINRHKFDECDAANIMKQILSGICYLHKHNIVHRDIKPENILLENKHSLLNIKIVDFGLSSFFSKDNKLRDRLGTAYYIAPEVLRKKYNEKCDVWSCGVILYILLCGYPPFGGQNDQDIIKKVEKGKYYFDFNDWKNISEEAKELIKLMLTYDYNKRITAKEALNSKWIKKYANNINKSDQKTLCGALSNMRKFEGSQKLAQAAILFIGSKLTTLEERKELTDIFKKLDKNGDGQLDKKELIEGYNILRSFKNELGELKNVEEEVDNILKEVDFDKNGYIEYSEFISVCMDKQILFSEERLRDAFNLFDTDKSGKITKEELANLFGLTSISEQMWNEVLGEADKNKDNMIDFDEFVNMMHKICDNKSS
UniProt P49840, sequence (whole entry, looked up): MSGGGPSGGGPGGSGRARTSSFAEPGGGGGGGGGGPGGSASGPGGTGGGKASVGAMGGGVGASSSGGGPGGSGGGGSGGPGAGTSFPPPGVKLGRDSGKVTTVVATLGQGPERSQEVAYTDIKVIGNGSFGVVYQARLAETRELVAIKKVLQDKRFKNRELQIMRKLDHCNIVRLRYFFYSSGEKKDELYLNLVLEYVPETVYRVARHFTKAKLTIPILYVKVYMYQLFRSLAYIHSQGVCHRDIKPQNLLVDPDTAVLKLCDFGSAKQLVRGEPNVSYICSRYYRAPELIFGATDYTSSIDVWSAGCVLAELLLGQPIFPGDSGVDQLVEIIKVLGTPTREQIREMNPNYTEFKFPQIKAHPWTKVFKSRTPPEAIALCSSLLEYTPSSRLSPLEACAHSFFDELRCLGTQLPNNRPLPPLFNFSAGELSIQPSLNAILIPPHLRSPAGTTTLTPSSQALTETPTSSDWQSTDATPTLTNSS

Series 1 — observed: enzyme activity; mode: inhibitor; tested at: 0.5 µM; baseline: control
Target: Protein-tyrosine kinase 2-beta (PTK2B, Homo sapiens, UniProt Q14289)
UniProt Q14289, sequence (whole entry, looked up): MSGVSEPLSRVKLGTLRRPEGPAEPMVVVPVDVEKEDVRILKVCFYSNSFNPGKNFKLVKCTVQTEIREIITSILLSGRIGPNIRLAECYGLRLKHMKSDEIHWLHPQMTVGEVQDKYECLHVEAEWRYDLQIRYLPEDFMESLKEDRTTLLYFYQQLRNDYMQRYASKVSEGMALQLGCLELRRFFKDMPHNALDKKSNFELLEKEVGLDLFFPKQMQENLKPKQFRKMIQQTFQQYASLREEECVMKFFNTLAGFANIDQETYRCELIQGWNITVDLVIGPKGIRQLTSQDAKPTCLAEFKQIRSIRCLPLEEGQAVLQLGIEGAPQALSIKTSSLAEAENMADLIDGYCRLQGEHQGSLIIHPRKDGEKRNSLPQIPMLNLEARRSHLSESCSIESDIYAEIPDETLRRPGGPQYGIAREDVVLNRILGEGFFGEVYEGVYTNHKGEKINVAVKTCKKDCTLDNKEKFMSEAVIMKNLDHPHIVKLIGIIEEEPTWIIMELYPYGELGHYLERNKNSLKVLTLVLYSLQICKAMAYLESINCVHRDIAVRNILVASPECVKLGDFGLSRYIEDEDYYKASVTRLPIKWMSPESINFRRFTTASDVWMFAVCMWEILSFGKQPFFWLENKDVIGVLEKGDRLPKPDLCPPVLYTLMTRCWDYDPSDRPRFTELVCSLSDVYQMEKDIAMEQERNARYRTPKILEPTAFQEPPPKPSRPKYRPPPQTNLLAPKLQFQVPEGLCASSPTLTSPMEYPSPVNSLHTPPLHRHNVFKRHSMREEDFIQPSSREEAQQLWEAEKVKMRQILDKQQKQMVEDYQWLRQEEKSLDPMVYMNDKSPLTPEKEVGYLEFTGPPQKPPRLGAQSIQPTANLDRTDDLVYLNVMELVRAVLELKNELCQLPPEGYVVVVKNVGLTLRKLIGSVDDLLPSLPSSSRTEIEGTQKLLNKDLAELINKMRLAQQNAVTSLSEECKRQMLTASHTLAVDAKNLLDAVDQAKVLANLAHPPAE
Oc1ccc(-c2nc(-c3ccncc3)c(-c3ccc(F)cc3)[nH]2)cc1 gave a remaining activity of 96.2%.
CN(C)c1ccc(C=C2C(=O)Nc3ccccc32)cc1 has a remaining activity of 94.5%.
The remaining activity of Nc1ccc2ncnc(NCCc3ccc(Oc4ccccc4)cc3)c2c1 is reported as 95%.
COc1ccc(CNC(=O)Nc2ncc([N+](=O)[O-])s2)cc1 gave a remaining activity of 83.1%.
With Cn1c2ccccc2c2c3c(c4c5ccccc5n(CCC#N)c4c21)CNC3=O the remaining activity was 26.7%.
The remaining activity of O=C(O)c1ccc2c3c1cccc3c(=O)n1c3ccccc3nc21 is reported as 69.2%.
Cc1cccc(-c2[nH]c(C(C)(C)C)nc2-c2ccc3c(c2)OCO3)n1 has a remaining activity of 91.3%.
NCCNc1ncc(C(N)=O)c(Nc2cccc(C(F)(F)F)c2)n1 gave a remaining activity of 47.5%.
With Cc1ccc(Nc2nccc(N(C)c3ccc4c(C)n(C)nc4c3)n2)cc1S(N)(=O)=O the remaining activity was 92%.
The remaining activity of C#Cc1cccc(Nc2ncnc3cc(OCCOC)c(OCCOC)cc23)c1 is reported as 97.6%.
For Nc1ncnc2n[nH]c(Nc3ccc(F)cc3)c12, the remaining activity was 101%.
O=C1NC(=O)C(c2cn(CCCn3ccnc3)c3ccccc23)=C1Nc1ccccc1 has a remaining activity of 93.3%.
For O=S(=O)(c1cccc2cnccc12)N1CCCNCC1, the remaining activity was 90.6%.
O=C1NC(=O)C(c2cn(CCCO)c3ncccc23)=C1c1cnccn1 gave a remaining activity of 94%.
For Cc1nc(-c2ccccc2)c(-c2ccncc2)o1, the remaining activity was 100%.
For CC(C)[C@H](CO)Nc1nc(Nc2cc(N)cc(Cl)c2)c2ncn(C(C)C)c2n1, the remaining activity was 63.6%.

Series 2 — observed: binding; technique: radioligand binding; tested at: 10 µM
Target: Sigma intracellular receptor 2 (TMEM97, Homo sapiens, UniProt Q5BJF2)
UniProt Q5BJF2, sequence (whole entry, looked up): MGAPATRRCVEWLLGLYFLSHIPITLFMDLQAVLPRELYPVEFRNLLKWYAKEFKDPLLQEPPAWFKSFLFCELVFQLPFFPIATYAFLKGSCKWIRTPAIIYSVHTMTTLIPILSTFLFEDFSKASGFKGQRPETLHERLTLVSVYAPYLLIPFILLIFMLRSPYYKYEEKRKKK
For COc1nc2ccc([C@@](O)(c3ccccc3)C3CCN(C(C)=O)CC3)cc2c(Cl)c1Cc1ccc(-n2cccn2)cc1, the inhibition was 65.8%.
With O[C@]1(C(F)(F)F)CCCC[C@H]1Nc1ccc(F)cc1 the inhibition was 8.95%.
The inhibition of COCCc1ccc(-c2c(C)nc3c(N4CCOCC4)ccnn23)cn1 is reported as 3.07%.
CN(C)CC#Cc1ccc(OCCCc2sc(N3CCc4cccc(C(=O)Nc5nc6ccccc6s5)c4C3)nc2C(=O)O)c(F)c1 has an inhibition of 83%.
Cc1c(NC(=O)c2cc(C(N)=O)nc3cc(F)ccc23)c(C(F)(F)F)nn1Cc1ccc(C(C)(C)C)cc1 gave an inhibition of 40.7%.
The inhibition of C[C@@H]1CN(c2cc(-c3nn(C)c4ccc(OC5(C)CC5)cc34)ncn2)C[C@H](C)O1 is reported as 90.4%.
For C[C@@]1(Cc2ccc(C#N)cc2)C(=O)N(c2cc(Cl)cc(Cl)c2)c2ncc(C(=O)NC3(c4nc(C5CCC5)no4)CC3)n21, the inhibition was 58%.
With O=C(Nc1ccc(-n2nc(-c3cccnc3)cc2C(F)(F)F)cn1)c1ccc(-c2ccccc2)c(F)c1 the inhibition was 30.1%.
For CNC(=O)c1ccc(Nc2ncc(C(F)(F)F)c(NCc3nccnc3N(C)S(C)(=O)=O)n2)cc1, the inhibition was 48.1%.

Series 3 — cell line: A-375; tested at: 100 µM; time: 36 h
The viability of CN1CCC(OC(c2ccccc2)c2ccccc2)CC1 is reported as 96.7%.
Cc1onc(-c2c(Cl)cccc2Cl)c1C(=O)N[C@@H]1C(=O)N2[C@@H]1SC(C)(C)[C@@H]2C(=O)O has a viability of 114%.
With O=c1c(O[C@@H]2O[C@H](CO)[C@H](O)[C@H](O)[C@H]2O)c(-c2ccc(O)c(O)c2)oc2cc(O)cc(O)c12 the viability was 108%.
With CCn1cc(C(=O)O)c(=O)c2cc(F)c(N3CCNCC3)cc21 the viability was 89.2%.
O=c1c(-c2ccc(O)cc2)coc2c([C@@H]3O[C@H](CO)[C@@H](O)[C@H](O)[C@H]3O)c(O)ccc12 gave a viability of 114%.
Cc1ccccc1C(=O)Nc1ccc(C(=O)N2CCCC(N(C)C)c3ccccc32)cc1 (stereo not shown) gave a viability of 29.6%.
CCCCC(CC)CN1CN(CC(CC)CCCC)CC(C)(N)C1 (stereo not shown) gave a viability of -2.86%.
For C[N+]1(CCCCC[N+]2(C)CCCC2)CCCC1, the viability was 114%.
For C[N+]1(C)CCC(=C(c2ccccc2)c2ccccc2)CC1, the viability was 88.6%.
C[C@H](CS)C(=O)N1CCC[C@H]1C(=O)O gave a viability of 92.6%.
Cc1[nH]c(=O)c(C#N)cc1-c1ccncc1 has a viability of 113%.
The viability of NCCS is reported as 122%.
The viability of C[C@H]1CN(C[C@H](Cc2ccccc2)C(=O)NCC(=O)O)CC[C@@]1(C)c1cccc(O)c1 is reported as 113%.
Cc1ccccc1C(=O)Nc1ccc(C(=O)N2CCCC(O)c3cc(Cl)ccc32)c(C)c1 (stereo not shown) has a viability of 73.4%.

Series 4 — tested at: 1 µM
Structure (SMILES): CN1CCN(C(=O)c2ccc(NC(=O)Nc3ccc(N(C)c4ccnc(Nc5ccc(CS(C)(=O)=O)cc5)n4)cc3)cc2)CC1
For GSK3A (Homo sapiens, UniProt P49840); competitive binding panel; baseline: vehicle: remaining binding read 100%.
PIM3 (Homo sapiens, UniProt Q86V86); competitive binding panel; baseline: vehicle — remaining binding: 100%.
The remaining binding was 86% (CDC42BPB (Homo sapiens, UniProt Q9Y5S2); competitive binding; MRCKB).
The remaining binding was 18% (MINK1 (Homo sapiens, UniProt Q8N4C8); competitive binding; MINK).
It gave 0% for remaining binding (RET (Homo sapiens, UniProt P07949); competitive binding panel; baseline: vehicle).
The remaining binding was 100% (INSRR (Homo sapiens, UniProt P14616); competitive binding panel; baseline: vehicle).
The remaining binding was 71% (CDPK1 (Plasmodium falciparum, UniProt P62344); competitive binding, scanMAX; Plasmodium falciparum CDPK1, 1000 nM).

A few entries again (series 1):
The remaining activity of C#Cc1cccc(Nc2ncnc3cc(OCCOC)c(OCCOC)cc23)c1 is reported as 97.6%.
For Nc1ncnc2n[nH]c(Nc3ccc(F)cc3)c12, the remaining activity was 101%.
O=C1NC(=O)C(c2cn(CCCn3ccnc3)c3ccccc23)=C1Nc1ccccc1 has a remaining activity of 93.3%.
For O=S(=O)(c1cccc2cnccc12)N1CCCNCC1, the remaining activity was 90.6%.
O=C1NC(=O)C(c2cn(CCCO)c3ncccc23)=C1c1cnccn1 gave a remaining activity of 94%.
